Measurements collected from several papers.
Each numbered part is a random draw from the data of one study; scales do not carry over between parts.
Sequence of UniProt O75716 (whole entry, looked up): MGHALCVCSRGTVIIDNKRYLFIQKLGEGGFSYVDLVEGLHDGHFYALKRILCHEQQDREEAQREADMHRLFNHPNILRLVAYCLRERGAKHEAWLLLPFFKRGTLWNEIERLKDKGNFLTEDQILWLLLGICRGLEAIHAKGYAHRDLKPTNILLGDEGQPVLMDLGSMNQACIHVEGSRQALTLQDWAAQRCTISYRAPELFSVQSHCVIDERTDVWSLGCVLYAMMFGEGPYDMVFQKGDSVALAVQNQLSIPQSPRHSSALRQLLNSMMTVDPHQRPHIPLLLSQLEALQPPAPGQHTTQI
Sequence of UniProt Q16644 (whole entry, looked up): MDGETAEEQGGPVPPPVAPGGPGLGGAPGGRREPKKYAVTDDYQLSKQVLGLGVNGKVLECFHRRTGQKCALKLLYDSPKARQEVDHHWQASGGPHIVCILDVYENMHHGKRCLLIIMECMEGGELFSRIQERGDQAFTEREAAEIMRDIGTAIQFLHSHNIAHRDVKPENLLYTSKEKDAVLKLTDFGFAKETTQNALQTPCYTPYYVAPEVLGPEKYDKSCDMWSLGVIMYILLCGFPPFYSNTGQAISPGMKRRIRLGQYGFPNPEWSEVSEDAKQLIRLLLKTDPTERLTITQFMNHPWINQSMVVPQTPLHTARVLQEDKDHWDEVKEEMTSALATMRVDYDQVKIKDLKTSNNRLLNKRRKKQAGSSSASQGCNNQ
Sequence of UniProt P54760 (whole entry, looked up): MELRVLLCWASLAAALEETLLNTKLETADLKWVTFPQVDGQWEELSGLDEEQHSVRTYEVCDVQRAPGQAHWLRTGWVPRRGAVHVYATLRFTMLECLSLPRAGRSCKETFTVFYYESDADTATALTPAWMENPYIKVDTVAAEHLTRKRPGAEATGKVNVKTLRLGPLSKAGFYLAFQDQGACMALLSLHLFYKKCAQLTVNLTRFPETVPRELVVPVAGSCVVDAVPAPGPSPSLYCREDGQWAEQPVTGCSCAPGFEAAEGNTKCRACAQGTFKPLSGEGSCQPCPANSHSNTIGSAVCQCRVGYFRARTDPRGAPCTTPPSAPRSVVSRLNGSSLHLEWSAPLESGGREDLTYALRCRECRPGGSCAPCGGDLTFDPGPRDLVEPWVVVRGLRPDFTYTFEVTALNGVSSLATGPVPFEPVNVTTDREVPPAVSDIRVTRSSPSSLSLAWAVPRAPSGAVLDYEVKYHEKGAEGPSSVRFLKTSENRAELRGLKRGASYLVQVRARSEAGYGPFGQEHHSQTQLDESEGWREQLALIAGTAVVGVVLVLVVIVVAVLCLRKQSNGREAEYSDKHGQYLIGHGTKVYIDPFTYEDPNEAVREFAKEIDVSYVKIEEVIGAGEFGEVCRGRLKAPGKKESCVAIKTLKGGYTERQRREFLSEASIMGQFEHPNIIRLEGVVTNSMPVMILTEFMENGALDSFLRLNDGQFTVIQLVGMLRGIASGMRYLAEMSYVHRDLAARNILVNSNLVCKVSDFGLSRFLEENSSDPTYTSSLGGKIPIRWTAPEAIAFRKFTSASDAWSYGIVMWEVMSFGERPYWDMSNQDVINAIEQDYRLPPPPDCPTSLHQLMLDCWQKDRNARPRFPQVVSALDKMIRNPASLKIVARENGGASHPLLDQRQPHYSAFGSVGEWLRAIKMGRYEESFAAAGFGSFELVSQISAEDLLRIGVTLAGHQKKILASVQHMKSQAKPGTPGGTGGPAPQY
Sequence of UniProt P00519 (whole entry, unmodified, looked up): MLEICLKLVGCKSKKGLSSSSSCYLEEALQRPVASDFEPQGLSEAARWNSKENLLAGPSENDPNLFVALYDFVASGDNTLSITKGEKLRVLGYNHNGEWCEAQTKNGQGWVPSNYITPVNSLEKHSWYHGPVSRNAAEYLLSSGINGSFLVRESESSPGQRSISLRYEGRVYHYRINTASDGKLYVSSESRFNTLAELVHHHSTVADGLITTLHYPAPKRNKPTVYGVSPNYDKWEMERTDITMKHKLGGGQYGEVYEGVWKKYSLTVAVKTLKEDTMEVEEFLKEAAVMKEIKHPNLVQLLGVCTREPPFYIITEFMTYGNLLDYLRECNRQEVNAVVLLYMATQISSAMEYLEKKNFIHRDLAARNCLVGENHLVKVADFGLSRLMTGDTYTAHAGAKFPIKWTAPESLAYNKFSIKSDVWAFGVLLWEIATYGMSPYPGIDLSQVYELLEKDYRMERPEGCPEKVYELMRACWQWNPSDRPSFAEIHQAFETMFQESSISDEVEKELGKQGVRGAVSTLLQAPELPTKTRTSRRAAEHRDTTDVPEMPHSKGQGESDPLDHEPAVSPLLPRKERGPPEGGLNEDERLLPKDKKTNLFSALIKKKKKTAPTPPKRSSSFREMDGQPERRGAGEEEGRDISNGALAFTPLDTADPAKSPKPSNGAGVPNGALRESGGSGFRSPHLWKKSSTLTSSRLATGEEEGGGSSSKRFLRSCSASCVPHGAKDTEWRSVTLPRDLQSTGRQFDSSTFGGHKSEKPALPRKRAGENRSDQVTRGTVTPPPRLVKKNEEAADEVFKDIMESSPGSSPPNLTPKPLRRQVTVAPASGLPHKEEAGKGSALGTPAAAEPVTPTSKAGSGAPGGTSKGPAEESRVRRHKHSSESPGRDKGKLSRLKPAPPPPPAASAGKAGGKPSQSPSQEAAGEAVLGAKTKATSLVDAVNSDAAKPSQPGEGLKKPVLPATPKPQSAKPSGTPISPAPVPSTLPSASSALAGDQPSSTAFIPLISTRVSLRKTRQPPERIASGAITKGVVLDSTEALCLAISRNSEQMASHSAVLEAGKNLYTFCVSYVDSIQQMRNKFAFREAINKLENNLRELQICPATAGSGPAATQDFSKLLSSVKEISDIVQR
Sequence of UniProt Q9H3Y6 (whole entry, looked up): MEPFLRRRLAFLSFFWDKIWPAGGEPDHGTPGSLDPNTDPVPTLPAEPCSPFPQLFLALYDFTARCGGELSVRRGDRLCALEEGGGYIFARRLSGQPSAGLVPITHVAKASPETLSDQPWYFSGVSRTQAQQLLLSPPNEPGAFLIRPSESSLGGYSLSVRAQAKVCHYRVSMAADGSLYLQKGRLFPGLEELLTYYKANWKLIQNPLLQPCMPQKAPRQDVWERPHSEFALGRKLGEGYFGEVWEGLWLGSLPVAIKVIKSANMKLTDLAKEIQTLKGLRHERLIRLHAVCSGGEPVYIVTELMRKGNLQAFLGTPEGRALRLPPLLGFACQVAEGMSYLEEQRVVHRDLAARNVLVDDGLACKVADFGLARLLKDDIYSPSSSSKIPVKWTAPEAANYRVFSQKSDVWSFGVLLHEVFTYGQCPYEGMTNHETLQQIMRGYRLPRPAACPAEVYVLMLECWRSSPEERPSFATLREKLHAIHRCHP

Series 1
Target: Sal-like protein 4, full length isoform B (SALL4, Homo sapiens, UniProt Q9UJQ4-2, residues 1-616)
Technique: universal PBM
Molecule type: double-stranded DNA, one strand shown
Matrix: in vitro
Tested at: not given
Notes: 8-mer, flanks averaged, mean of replicates
Reading: higher = stronger binding
Endpoint: E-score
GGACGACC: -0.374
AGCATCTA: 0.166
CCGAACTA: -0.0949
GAAGGACC: -0.18
AGTGGCCA: -0.106
ACGCATCG: 0.0967
GACGGTCA: -0.12
GCAGCAAC: -0.106

Series 2
Compound: O=C1NC(=O)c2c1c1c3ccccc3[nH]c1n1cncc21
Read-out: enzyme activity
Action: inhibitor
Tested at: 0.5 µM
Reference: control
Endpoint: remaining activity
Serine/threonine-protein kinase 16 (STK16, Homo sapiens, UniProt O75716): 70.9%
Ephrin type-B receptor 4 (EPHB4, Homo sapiens, UniProt P54760): 105%
MAP kinase-activated protein kinase 3 (MAPKAPK3, Homo sapiens, UniProt Q16644): 88.7%
Tyrosine-protein kinase Srms (SRMS, Homo sapiens, UniProt Q9H3Y6): 100%

Single results of other studies
NOP9 (Homo sapiens, UniProt Q86U38) — cross-linked residues (RBM19 (Homo sapiens, UniProt Q9Y4C8); cross-linking MS; cell fractions; with: DSSO): K611 to K481
Cn1cncc1[C@](O)(COc1ccc(C#N)cc1-c1ccc(OC(F)(F)F)cc1)c1ccc(C#N)cc1 — remaining binding (Tyrosine-protein kinase ABL1, phosphorylated (ABL1, Homo sapiens, UniProt P00519, E255K); binding, competition with immobilised ligand; 1 µM): 94%
EIF3CL (Homo sapiens, UniProt B5ME19) — interaction screen (EIF3E (Homo sapiens, UniProt P60228); cross-linking MS; hits only): cross-linked
MIX23 (Homo sapiens, UniProt Q4VC31) — interaction screen (SMIM12 (Homo sapiens, UniProt Q96EX1); cross-linking MS; hits only): cross-linked
H3-4 (Homo sapiens, UniProt Q16695) — interaction screen (H2AC18 (Homo sapiens, UniProt Q6FI13); cross-linking MS; hits only): cross-linked
